# Experimental data from different studies.
# Parts stem from different laboratories: compare values within a part only. Substitutions count along the parent as printed.

# Study 1 — technique: protein-binding microarray; molecule type: double-stranded DNA, one strand shown; medium: in vitro; concentration: not given; direction: higher = stronger binding
# Target: Hepatocyte nuclear factor 3-beta, forkhead domain (FOXA2, Homo sapiens, UniProt Q9Y261, residues 142-269)
# Notes: k-mer, scored over probes, only values ≥0.25
# Target sequence (chain): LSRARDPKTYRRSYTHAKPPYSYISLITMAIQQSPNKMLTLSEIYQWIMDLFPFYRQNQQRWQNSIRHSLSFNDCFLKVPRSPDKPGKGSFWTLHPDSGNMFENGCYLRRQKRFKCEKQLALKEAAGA
Strand,E-score
TATGTTGA,0.331
CAACATAA,0.339
CAATACTC,0.312
GAATTAAC,0.263
CATACATG,0.361
ACATATGA,0.254
ATTAAATA,0.32
AGAGTAAA,0.274
AGCAATAC,0.252
GTATCTAA,0.325
ATACAATG,0.294
TTACATAA,0.318
AGATCATA,0.287
ATGCAGTA,0.256
AACAACTA,0.277

# Study 2 — technique: DHFR PCA, deep sequencing; medium: yeast; with: (+)-ABA 0.39 µM; baseline: wild-type fitted maximum; direction: higher = stronger binding
# Target: ABI1, truncated, D143A, DHFR fusion (Arabidopsis thaliana)
# Notes: methotrexate growth selection, single substitutions
# Parent: PYL1, truncated, DHFR fusion (Arabidopsis thaliana); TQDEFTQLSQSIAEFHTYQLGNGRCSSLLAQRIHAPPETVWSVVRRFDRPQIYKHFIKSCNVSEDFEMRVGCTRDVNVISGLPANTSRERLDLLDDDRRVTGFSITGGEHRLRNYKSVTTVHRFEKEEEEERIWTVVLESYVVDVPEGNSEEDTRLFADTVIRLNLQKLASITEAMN
Variant,relative binding score
P83G,56.6%
P36T,31%
V78I,58.5%
K54I,-8.59%
E129G,70.2%
T119F,-9.53%
F124P,-8.09%
R49I,3.88%
Q31N,-12%
S11Q,46.9%
I105E,0.175%
A158Y,-1.99%
T39A,33.2%
K126S,75.9%
V76P,-11%
Q7I,32.7%
E4P,24.7%
E151T,27.3%

# Study 3 — target: CCNB3, cyclin fold, Cln2 fusion (human); technique: yeast growth competition, sequencing; medium: yeast; notes: weak parent motif; baseline: not given; direction: higher = stronger binding
# Parent: ORC1 docking peptide (human); PRARKRLELGNLG
Variant,normalised enrichment score
PRAGKRLELGNLG [R4G],0.321
PRARKRLELSNLG [G10S],-0.193
PMARKRLELGNLG [R2M],0.839
PRARKRLILGNLG [E8I],-0.118
PRARKRLALGNLG [E8A],0.139
PRARWRLELGNLG [K5W],0.124
PIARKRLELGNLG [R2I],0.599
PRARKRSELGNLG [L7S],-0.035
PRARSRLELGNLG [K5S],0.311
IRARKRLELGNLG [P1I],-0.129
PRARKRLESGNLG [L9S],0.416
PRARKRLELGNLK [G13K],0.128
PRAFKRLELGNLG [R4F],0.304
PRARRRLELGNLG [K5R],0.252
PRARKRLELGNYG [L12Y],-0.134
PRARKRNELGNLG [L7N],-0.253
PRARKRLELDNLG [G10D],0.293
PRARKRLELGNLE [G13E],0.469
PRARKRLRLGNLG [E8R],-0.0422
SRARKRLELGNLG [P1S],-0.266
PRFRKRLELGNLG [A3F],0.156
PRARKRLELQNLG [G10Q],-0.379
RRARKRLELGNLG [P1R],0.219
PRAWKRLELGNLG [R4W],0.0981
LRARKRLELGNLG [P1L],-0.0601

# Study 4 — technique: RNA Bind-n-Seq; molecule type: RNA; medium: in vitro; concentration: 200 nM; notes: whole 134-nt RNA, ends assumed; with: 150 mM LiCl; baseline: input library; direction: higher = stronger binding; all molecules: 7-deaza-guanosine replaces G
# Target: Fragile X messenger ribonucleoprotein 1, C-terminal low-complexity region (Fmr1, Mus musculus, UniProt P35922)
Strand,log2 enrichment
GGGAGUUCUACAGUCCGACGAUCAAGUCCUGUGCUACACAUCGUAUGUACCGAAUCGGGUUUUUGGGAGGGUUUUUGGGAAAGUAUUAUGUUACGCCGUUCGGAUCUGCACUUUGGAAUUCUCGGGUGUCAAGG,-1.24
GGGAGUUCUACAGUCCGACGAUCCACAGACAACACGCACCCACACAGACACAGAGGGAAGGGGUUGGGAUGGGGACAGGGUGAACAGCAGGGCGGGGUAGGACCCCAGCCCCUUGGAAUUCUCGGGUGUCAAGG,-0.307
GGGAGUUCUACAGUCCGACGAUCACCAUGCAGGUGGGCAUCUUUGGAAAGUGGGGCAAGGGGGGGAUAGGGAGGGGGGUAACACUUUGGGAACAGGUGGUCCCAGGUCGUUUCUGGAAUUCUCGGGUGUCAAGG,1.28
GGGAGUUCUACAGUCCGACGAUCUCCUCAAGUCCUGUGCUACACAUCGUAUGUACCGAAUCGGCGGCGGGCGGGGAAAGUAUUAUGUUACGCCGUUCGGAUCUGCACUUCCAGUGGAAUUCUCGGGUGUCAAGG,0.975
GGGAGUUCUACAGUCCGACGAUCCUCAAGUCCUGUGCUACACAUCGUAUGUACCGAAUCGGCCGGGGCCGGGCCGGAAAGUAUUAUGUUACGCCGUUCGGAUCUGCACUUCCAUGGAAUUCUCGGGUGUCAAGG,-0.231
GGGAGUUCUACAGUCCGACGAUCUCCUCAAGUCCUGUGCUACACAUCGUAUGUACCGAAUCGGGCGGCGGGGCGGAAAGUAUUAUGUUACGCCGUUCGGAUCUGCACUUCCAGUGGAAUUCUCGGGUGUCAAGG,-0.302
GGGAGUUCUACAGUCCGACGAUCUUCUGAGAAGGUUGCGCAGCAGCUGUGCCCGGCAGUCUAGAGGCGCAGAAGAGGAAGCCAUCGCCUGGCCCCGGCUCUCUGGACCUUGUCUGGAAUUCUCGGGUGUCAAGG,-2.29
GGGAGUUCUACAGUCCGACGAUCCCUCAAGUCCUGUGCUACACAUCGUAUGUACCGAAUCGGCCGGGCCGGCCGGGAAAGUAUUAUGUUACGCCGUUCGGAUCUGCACUUCCAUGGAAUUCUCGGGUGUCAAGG,0.121
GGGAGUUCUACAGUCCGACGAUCUCCUGUGCUACACAUCGUAUGUACCGAAUCGGGGUUUUUUUGGGGUUUUUGGGGUGGGGAAAGUAUUAUGUUACGCCGUUCGGAUCUGCAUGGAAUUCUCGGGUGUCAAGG,-0.502
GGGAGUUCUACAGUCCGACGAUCAAGUCCUGUGCUACACAUCGUAUGUACCGAAUCGGGGAAAAGGGAAAAGGAAAAGGGAAAGUAUUAUGUUACGCCGUUCGGAUCUGCACUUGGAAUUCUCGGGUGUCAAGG,-0.125
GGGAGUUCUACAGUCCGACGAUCCAAGUCCUGUGCUACACAUCGUAUGUACCGAAUCGGGGAAAGGGGUGGGGUGGGGAAAGUAUUAUGUUACGCCGUUCGGAUCUGCACUUCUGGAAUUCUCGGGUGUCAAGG,-0.248

# Study 5 — technique: universal PBM; molecule type: double-stranded DNA, one strand shown; medium: in vitro; concentration: not given; direction: higher = stronger binding
# Target: Sal-like protein 4, full length isoform B (SALL4, Homo sapiens, UniProt Q9UJQ4-2, residues 1-616)
# Notes: 8-mer, flanks averaged, mean of replicates
Strand,E-score
ATGTATCG,0.233
AGCGGCCC,-0.352
CGTAGGAC,-0.229
TGTAAACA,0.214
CCAGATAC,-0.0565
ACACTAAA,0.192
ATGTTAAA,0.322
GTTTGGTA,0.23
AATCCTGG,-0.15
GGAAGACC,-0.327
AAGTCTTC,0.0257
CCCTCCCA,-0.108
CACAGAAA,0.024
CAAACGTG,0.0362
ACATCGCA,-0.158
CACAATTC,0.172
GGTCTCGA,-0.142

# Study 6 — target: BATF, bZIP domain (human); technique: DHFR protein complementation; medium: yeast; baseline: wild-type JUN-FOS pair; direction: higher = stronger binding
# Notes: single substitutions, most at no-binding floor
# Parent: JUN, bZIP domain (human); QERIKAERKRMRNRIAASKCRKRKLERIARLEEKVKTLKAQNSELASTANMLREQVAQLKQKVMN; partner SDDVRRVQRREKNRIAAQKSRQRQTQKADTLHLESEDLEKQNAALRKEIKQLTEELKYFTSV
Variant,binding fitness
N42L,-0.671 natural log
A49W,-0.382 natural log
A29L,-0.18 natural log
N42Q,-0.0645 natural log
E32G,-0.22 natural log
E32D,0.0014 natural log
K34V,-0.0959 natural log
E33S,-0.126 natural log
E54K,-0.0664 natural log
S43R,0.101 natural log
A49F,-0.583 natural log
E33K,-0.212 natural log
A49Y,-0.234 natural log
L38M,-0.202 natural log
K36D,-0.0982 natural log

# Single results of other studies
Molecule,target,test,test system,setting,scale,endpoint,value
"PhoQ, residues 284 288 289 292 302 303 SSLVEF","PhoP, residues 12 14 15 18 19 NQAHL (Escherichia coli, UniProt P23836)","Sort-seq, item: YFP reporter",E. coli,"PhoQ-PhoP variant library, with: 10 µM Mg2+","baseline: high Mg2+ state, higher = stronger signaling",fold induction,1.76

# For quick reference, copied from above (study 6):
Variant,binding fitness
A49W,-0.382 natural log
A29L,-0.18 natural log
N42Q,-0.0645 natural log
E32G,-0.22 natural log
E32D,0.0014 natural log
K34V,-0.0959 natural log
E33S,-0.126 natural log
E54K,-0.0664 natural log
S43R,0.101 natural log
A49F,-0.583 natural log
E33K,-0.212 natural log
A49Y,-0.234 natural log
L38M,-0.202 natural log
